Measurements of several laboratories.
A part holds a random share of what one study measured.

Study 1
Target: Prothrombin, mature alpha-thrombin (F2, Homo sapiens, UniProt P00734)
Technique: aptamer microarray, sandwich
Molecule type: DNA with 2'F-ANA
Medium: in vitro
Tested at: 200 nM
Notes: whole 15-mer aptamer, many near background
Together with: Cy3 exosite-II aptamer, 400 nM
Reading: higher = stronger binding
Strand: GGTTGGTGTGGTTGG
`2'F-ANA at 1 5 7 8 11 12 13 14` — result for “mean fluorescence intensity”: 46.6 a.u.
`2'F-ANA at 2 5 6 8 10 11 15`: “mean fluorescence intensity” 61 a.u.
For `2'F-ANA at 2 5 7 8 9 11 12 14`, “mean fluorescence intensity” read 48.3 a.u.
`2'F-ANA at 1 2 3 6 11 13 14`: “mean fluorescence intensity” 59.1 a.u.
Under “mean fluorescence intensity”, `2'F-ANA at 1 4 5 7 8 12 13` is recorded as 86.2 a.u.
`2'F-ANA at 7 9 11 12 14 15`: “mean fluorescence intensity” 286 a.u.
`2'F-ANA at 1 3 5 6 7 8 10 11 12 13 14`: “mean fluorescence intensity” 49.3 a.u.
For `2'F-ANA at 2 3 4 5 7 9 12 13 14`, “mean fluorescence intensity” read 50 a.u.
Under “mean fluorescence intensity”, `2'F-ANA at 2 7 12 13 14` is recorded as 189 a.u.
`2'F-ANA at 1 2 3 4 7 9 10 13` — result for “mean fluorescence intensity”: 54.2 a.u.
`2'F-ANA at 2 3 4 6 7 8 13 15` — result for “mean fluorescence intensity”: 423 a.u.
Under “mean fluorescence intensity”, `2'F-ANA at 1 6 7 8 11 12 14` is recorded as 79.7 a.u.
`2'F-ANA at 5 6 7 11 13 14` — result for “mean fluorescence intensity”: 46.6 a.u.
`2'F-ANA at 5 6 8 10 12 14 15` — result for “mean fluorescence intensity”: 47.1 a.u.
`2'F-ANA at 2 3 4 5 6 11 12 13` — result for “mean fluorescence intensity”: 109 a.u.
Under “mean fluorescence intensity”, `2'F-ANA at 2 5 7 8 10 11 14 15` is recorded as 92 a.u.
For `2'F-ANA at 1 5 6 7 8 9 11 12 13 15`, “mean fluorescence intensity” read 73.5 a.u.
For `2'F-ANA at 2 6 8 9 10 12`, “mean fluorescence intensity” read 156 a.u.
`2'F-ANA at 1 2 4 7 8 14`: “mean fluorescence intensity” 63.3 a.u.
`2'F-ANA at 4 5 7 9 11 13`: “mean fluorescence intensity” 62.4 a.u.
`2'F-ANA at 1 6 8 11 12 13` — result for “mean fluorescence intensity”: 293 a.u.

Study 2
Target: Interferon regulatory factor 7, full length, phosphomimetic (IRF7, Homo sapiens, UniProt Q92985, residues 1-503, S101K/S471D/S472D/S475D/S476D/S477D/S483D/S484D/S487D)
Technique: protein-binding microarray
Molecule type: double-stranded DNA, one strand shown
Medium: in vitro
Tested at: 250 nM
Notes: 60-bp whole probe
Together with: salmon DNA 0.4 mg/ml
Reference: random background probes
Reading: higher = stronger binding
All sequences stand within: GCCTAGCAC … GTCTTGATTCGCTTGACGCTGCTG
Residues (chain): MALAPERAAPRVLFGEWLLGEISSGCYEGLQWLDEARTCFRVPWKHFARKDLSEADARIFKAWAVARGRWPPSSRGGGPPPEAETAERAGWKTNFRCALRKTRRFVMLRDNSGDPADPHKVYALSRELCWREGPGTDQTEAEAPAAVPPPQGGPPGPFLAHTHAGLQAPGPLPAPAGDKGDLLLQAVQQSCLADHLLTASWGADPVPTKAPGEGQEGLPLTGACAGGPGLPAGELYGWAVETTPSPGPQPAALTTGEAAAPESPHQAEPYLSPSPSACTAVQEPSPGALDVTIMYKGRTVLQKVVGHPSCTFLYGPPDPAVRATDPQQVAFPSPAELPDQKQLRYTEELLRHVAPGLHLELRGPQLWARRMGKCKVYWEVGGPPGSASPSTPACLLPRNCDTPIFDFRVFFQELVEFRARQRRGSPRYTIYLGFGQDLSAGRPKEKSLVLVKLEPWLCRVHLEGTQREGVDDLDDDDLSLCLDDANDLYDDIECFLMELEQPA
The log fluorescence of `TTAGGACTGTTACTGCTTTAGTGCTAG` is reported as 0.112 z-score.
`TCATGTTTGGTGTCTTTTACTGTGCTA` gave a log fluorescence of 0.141 z-score.
`GACGGTTTCCGACTGCTGACGTGCTAG` has a log fluorescence of 1.66 z-score.
For `AACCTTATTAAGATTGTGCAAGTGCTA`, the log fluorescence was 0.0251 z-score.
For `GACGTTTCCGGTTTCGGGACGTGCTAG`, the log fluorescence was 6.86 z-score.
`TCATCTTGCAGATGTCGCACTGTGCTA` gave a log fluorescence of 0.112 z-score.
`TTAGATTTCAGTTCCGATAAGTGCTAG` has a log fluorescence of 1.04 z-score.
`TTAGGTTTCGGTCTCGGATAGTGCTAG` gave a log fluorescence of 8.47 z-score.
The log fluorescence of `GACGATTTCAGAATGGAGACGTGCTAG` is reported as 0.252 z-score.
For `GACGAACTGTGGTATCGAGACGTGCTA`, the log fluorescence was -0.155 z-score.
`TCATCTTTTCATTACTGACTGTGCTAG` gave a log fluorescence of 1.01 z-score.
For `TTAGGACTGAGTATCGGTTAGTGCTAG`, the log fluorescence was 0.871 z-score.
`TTAGGTGTCCTTTTCCTTTAGTGCTAG` has a log fluorescence of 0.693 z-score.
The log fluorescence of `GGCGGTATCCTACTGCTGACGTGCTAG` is reported as -0.723 z-score.
`ATGTTTTTCATTGTTTTTCAGTGCTAG` gave a log fluorescence of 1.59 z-score.
`GACGGTTTCGGTCTCGGGATGTGCTAG` has a log fluorescence of 7.92 z-score.
For `TTAGGACTGCTTTTCGTTTAGTGCTAG`, the log fluorescence was 2.14 z-score.

Study 3
Target: RNA binding protein fox-1 homolog 2, RRM domain, GST-SBP tag (RBFOX2, Homo sapiens, UniProt O43251-10, residues 100-194)
Technique: RNA Bind-n-Seq
Molecule type: RNA
Medium: in vitro
Tested at: 365 nM
Notes: natural RNA segment, single round, ends assumed
Reference: no-protein control
Reading: higher = stronger binding
Construct (chain): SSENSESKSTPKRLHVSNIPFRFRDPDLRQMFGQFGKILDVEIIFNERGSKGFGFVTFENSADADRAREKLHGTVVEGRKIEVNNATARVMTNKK
Under “RBNS enrichment (R)”, `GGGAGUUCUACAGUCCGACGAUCUUUUAAAAAGUGCAAUCAAUAAAGCAGAGUUCUGUCAAGAAUGAGUAAGUUAACAGCCAGAGACAGACACUGUGCAGGCAUUGCAAAUAGAUGGAAUUACAGCAAAAUGUUGGAAUUCUCGGGUGCCAA` is recorded as 0.942.
`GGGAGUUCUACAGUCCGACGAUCCCUCACAGAGUGGCCCGUAUCACUCCCCACGUCUGUAGACACAUGGCUUUGAAUGAUUACUAUUUGGUCUGUGUGCUACUAACAGAUAAUAAACGAUCACCAGGAAACUUUGGAAUUCUCGGGUGCCAA`: “RBNS enrichment (R)” 0.658.
`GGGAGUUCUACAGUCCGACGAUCUUUUUGGCUUCUGUAAGUAUGCUCUAUGCACCUCUAAUGUUUUAUCAUGUAUUUAUAUGUUGUACACAGUACUGGCUGAUUCUGUAAAUGGAUGUAUUGUACAGAGAACAUGGAAUUCUCGGGUGCCAA` — result for “RBNS enrichment (R)”: 1.07.
`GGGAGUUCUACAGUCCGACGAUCCUGUCUUUAAAGCCAAGAAAGUAGUAAUUAAGUAGCCUAGAUUUAAGGAGGGUAGAAUAAGCAUUUAUUCCCCUGCCUUCCAAAUUGAAGAGGAGGACUUGGCCUCAAGCUGGAAUUCUCGGGUGCCAA` — result for “RBNS enrichment (R)”: 0.377.
`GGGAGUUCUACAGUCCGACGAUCCAGAAAAUAAGCCAUUCCUCAUAUCAGUGGGAUAAACUCCUUGUACCUCUUGCUGUGUUUGGAUCCCUUGGCCUUGUUUUGUAGAGGUGAAGUACCCCUGGAUCAUGUCCUGGAAUUCUCGGGUGCCAA` — result for “RBNS enrichment (R)”: 1.28.
Under “RBNS enrichment (R)”, `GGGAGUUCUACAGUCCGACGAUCCUAAUUGCCAUGUAUAGUAUGUUCGGUUAGAUAACUCACUGUAAACAGACUGUAACUGCCAGGCAGCGCUUAUAAAUCAACCUAACAUUUAUAAGAUUUCCUCUGACUUGUGGAAUUCUCGGGUGCCAA` is recorded as 0.301.
`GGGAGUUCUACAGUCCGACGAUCAAUUAGCACAUCUGUGGCUGAGGAGAAAUCCACCUGAAAAUGUGGGAGACCUUGACAGAGUGGUCAGCUGGAUCAGUGUGCCCUAAACUAAGUAAAAUCAUUGUUCCAUUUGGAAUUCUCGGGUGCCAA` — result for “RBNS enrichment (R)”: 0.54.
Under “RBNS enrichment (R)”, `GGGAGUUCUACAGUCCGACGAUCGUGGACAUACUAGAGUUGAUUAUAGACACAUUGAUUUUGAAUAAGGAACUGCUGGCCGAGCCCGCUGGGAGUCUAGAAAGAGAAAAUCUGUUUCUAGACCUCAGUUAUUUUGGAAUUCUCGGGUGCCAA` is recorded as 0.423.
Under “RBNS enrichment (R)”, `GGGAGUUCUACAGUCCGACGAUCAGCUAAGCAGUGUAUUUUAAUCGAAGAAGAAACCAAAAUCUGUUCUAAGAACUGGGGUUCUAUACCUCUGUAGGCCCUUUAUUGAACAGCAUUAUUCACUAGAUGCAAAGUGGAAUUCUCGGGUGCCAA` is recorded as 0.689.
Under “RBNS enrichment (R)”, `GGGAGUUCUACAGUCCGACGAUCAGCAGUUUAAACCUCCUGACCCACUUAACCUAUCUCUUUUGUUUAUUCCCUGAAGUAUGUAAUCCUUUGUACAGCUUUUCUAUCUUACAUAUAAAAAGGAGACAUGAGAAUGGAAUUCUCGGGUGCCAA` is recorded as 0.477.
`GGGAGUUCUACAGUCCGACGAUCCCAUGAUUUGAUUUGUGUUCUCAAAGCAAGUGUGCCCUUUGGUUCUGCAGAGCAGGCCCACUUCCUGUCCCUGAGCCCAUCUUCAUUUCUAGAGGGCUGACCCUGAGCACUGGAAUUCUCGGGUGCCAA` — result for “RBNS enrichment (R)”: 0.218.
`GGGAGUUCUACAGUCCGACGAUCUUAAUUCUAGAUGUUUUAUCUCUCUGGGAGUAUAGUUUAUAGAAACACAAAGUACUUGAUUUCCUGUGUCGGCUCAGAUACAAGAAACACACACAACUGUUACCCUGACAUGGAAUUCUCGGGUGCCAA` — result for “RBNS enrichment (R)”: 0.236.

Study 4
Substance: PhoQ, residues 284 288 289 292 302 303 SLANKL
Technique: Sort-seq
Measured: YFP reporter
Medium: E. coli
Notes: PhoQ-PhoP variant library
Together with: 10 µM Mg2+
Reference: high Mg2+ state
Reading: higher = stronger signaling
It gave 11.8 for fold induction (PhoP, residues 12 14 15 18 19 SHWTV (Escherichia coli, UniProt P23836)).
For PhoP, residues 12 14 15 18 19 QYCSL (Escherichia coli, UniProt P23836): fold induction read 5.23.
The fold induction was 2.17 (PhoP, residues 12 14 15 18 19 STHWV (Escherichia coli, UniProt P23836)).

Repeated from above (study 2):
`TCATCTTGCAGATGTCGCACTGTGCTA` gave a log fluorescence of 0.112 z-score.
For `GACGAACTGTGGTATCGAGACGTGCTA`, the log fluorescence was -0.155 z-score.
`TCATGTTTGGTGTCTTTTACTGTGCTA` gave a log fluorescence of 0.141 z-score.
`TCATCTTTTCATTACTGACTGTGCTAG` gave a log fluorescence of 1.01 z-score.
The log fluorescence of `TTAGGACTGTTACTGCTTTAGTGCTAG` is reported as 0.112 z-score.
The log fluorescence of `GACGATTTCAGAATGGAGACGTGCTAG` is reported as 0.252 z-score.
For `AACCTTATTAAGATTGTGCAAGTGCTA`, the log fluorescence was 0.0251 z-score.
